# Published values pooled from the literature.
# Compare with care: the assays were run in different laboratories. ± gives the spread as reported.
# CDK2 with cyclin A: Cyclin-dependent kinase 2, with cyclin A (CDK2, Homo sapiens, UniProt P24941)
# CDK2 with cyclin A1: Cyclin-dependent kinase 2, with cyclin A1 (CDK2, Homo sapiens, UniProt P24941)
# CDK2 with cyclin A2: Cyclin-dependent kinase 2, with cyclin A2 (CDK2, Homo sapiens, UniProt P24941)
# CDK2 with cyclin E: Cyclin-dependent kinase 2, with cyclin E (CDK2, Homo sapiens, UniProt P24941)
SMILES,target,test,conditions,how to read,remaining activity [%]
O=C(NC1CCC1)c1ccc2nc(-c3cccc(NS(=O)(=O)NCCN4CCCCC4)c3)cn2c1,"CDK2 (Homo sapiens, UniProt P24941)",enzyme activity,10 µM,,95
O=C1NC(=O)/C(=C/c2ccc(-c3ccc(F)cc3O)o2)S1,CDK2 with cyclin A,enzyme activity,10 µM,,89
CC#CC(=O)N1CCC[C@H]1c1nc(-c2ccc(C(=O)Nc3ccccn3)cc2)c2c(N)nccn12,CDK2 with cyclin A1,"kinase activity, inhibitor, HotSpot radiometric","100 nM, added: ATP 10 µM",,88.8 ± 3.3
Cc1cc(Nc2cc(N3CCN(C)CC3)nc(Sc3ccc(NC(=O)C4CC4)cc3)n2)[nH]n1,CDK2 with cyclin A,"kinase activity, KinaseProfiler","0.03 µM, species human",baseline: control,92
CC(=O)Nc1c(N)nc(SCC(=O)NN)[nH]c1=O,CDK2 with cyclin A2,kinase activity,1 nM,,91.7
CCN(CC)c1ccc(C2=NNC(=O)CC2C)cc1[N+](=O)[O-] (stereo not shown),CDK2 with cyclin A,"enzyme activity, inhibitor",10 µM,baseline: vehicle,114
COc1ccc(F)cc1C(=O)NCc1ccc(-c2nn([C@@H](C)C(F)(F)F)c(N)c2C(N)=O)cc1,CDK2 with cyclin A1,"kinase activity, inhibitor, HotSpot radiometric","1000 nM, added: ATP at Km",,95.4 ± 1.8
CCCOc1ccc(OC)c(F)c1C(=O)c1ccc(C(=O)N[C@@H]2CNC[C@H]2NC(=O)c2ccc3[nH]ncc3c2)cc1,CDK2 with cyclin E,enzyme activity,10 µM,,94
CC(=O)Nc1c(N)nc(SCC(=O)N/N=C/c2ccc([N+](=O)[O-])cc2)[nH]c1=O,CDK2 with cyclin A2,kinase activity,5 nM,,91.6
COc1cc(F)ccc1-c1ncnc(Nc2cccc(C[S@](C)(=N)=O)c2)n1,CDK2 with cyclin E,kinase activity,"10 µM, added: 10 µM ATP",,13

# For quick reference, copied from above:
SMILES,target,test,conditions,how to read,remaining activity [%]
O=C1NC(=O)/C(=C/c2ccc(-c3ccc(F)cc3O)o2)S1,CDK2 with cyclin A,enzyme activity,10 µM,,89
